{"data": "Results pooled from the literature", "note": "Every numbered part comes from another study and shows a few of its results, in no order. “And” joins repeats or separate records; there may be more than shown. Numbers after ± are the reported error.", "UniProt P00519, sequence (whole entry, unmodified, looked up)": "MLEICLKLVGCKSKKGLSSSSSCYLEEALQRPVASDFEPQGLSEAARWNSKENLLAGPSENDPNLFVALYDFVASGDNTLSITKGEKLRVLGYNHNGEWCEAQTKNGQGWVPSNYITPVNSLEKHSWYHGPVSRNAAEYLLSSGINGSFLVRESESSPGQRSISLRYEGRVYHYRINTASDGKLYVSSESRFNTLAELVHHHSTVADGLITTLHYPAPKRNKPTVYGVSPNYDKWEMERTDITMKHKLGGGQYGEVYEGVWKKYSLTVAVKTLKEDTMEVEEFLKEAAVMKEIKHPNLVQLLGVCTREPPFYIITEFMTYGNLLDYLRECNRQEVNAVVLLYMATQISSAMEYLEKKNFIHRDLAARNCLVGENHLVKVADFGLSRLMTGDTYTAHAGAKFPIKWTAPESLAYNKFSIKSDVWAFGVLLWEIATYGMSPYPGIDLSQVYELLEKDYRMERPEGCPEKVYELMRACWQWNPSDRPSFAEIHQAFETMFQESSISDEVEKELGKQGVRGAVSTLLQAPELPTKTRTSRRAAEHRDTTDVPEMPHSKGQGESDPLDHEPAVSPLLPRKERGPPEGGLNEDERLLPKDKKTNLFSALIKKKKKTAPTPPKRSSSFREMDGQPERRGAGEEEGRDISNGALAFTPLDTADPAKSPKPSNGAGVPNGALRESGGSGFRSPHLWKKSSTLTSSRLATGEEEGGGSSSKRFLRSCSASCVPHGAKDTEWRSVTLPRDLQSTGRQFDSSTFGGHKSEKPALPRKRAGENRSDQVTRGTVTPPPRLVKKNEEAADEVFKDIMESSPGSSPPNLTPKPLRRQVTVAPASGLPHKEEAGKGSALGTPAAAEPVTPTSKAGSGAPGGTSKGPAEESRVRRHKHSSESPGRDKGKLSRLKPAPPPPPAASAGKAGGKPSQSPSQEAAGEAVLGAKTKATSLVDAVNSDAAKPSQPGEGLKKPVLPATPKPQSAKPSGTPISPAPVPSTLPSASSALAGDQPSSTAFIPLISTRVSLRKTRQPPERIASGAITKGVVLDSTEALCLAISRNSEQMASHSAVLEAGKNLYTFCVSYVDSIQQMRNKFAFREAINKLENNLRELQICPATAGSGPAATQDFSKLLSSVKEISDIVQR", "UniProt Q15139, sequence (whole entry, looked up)": "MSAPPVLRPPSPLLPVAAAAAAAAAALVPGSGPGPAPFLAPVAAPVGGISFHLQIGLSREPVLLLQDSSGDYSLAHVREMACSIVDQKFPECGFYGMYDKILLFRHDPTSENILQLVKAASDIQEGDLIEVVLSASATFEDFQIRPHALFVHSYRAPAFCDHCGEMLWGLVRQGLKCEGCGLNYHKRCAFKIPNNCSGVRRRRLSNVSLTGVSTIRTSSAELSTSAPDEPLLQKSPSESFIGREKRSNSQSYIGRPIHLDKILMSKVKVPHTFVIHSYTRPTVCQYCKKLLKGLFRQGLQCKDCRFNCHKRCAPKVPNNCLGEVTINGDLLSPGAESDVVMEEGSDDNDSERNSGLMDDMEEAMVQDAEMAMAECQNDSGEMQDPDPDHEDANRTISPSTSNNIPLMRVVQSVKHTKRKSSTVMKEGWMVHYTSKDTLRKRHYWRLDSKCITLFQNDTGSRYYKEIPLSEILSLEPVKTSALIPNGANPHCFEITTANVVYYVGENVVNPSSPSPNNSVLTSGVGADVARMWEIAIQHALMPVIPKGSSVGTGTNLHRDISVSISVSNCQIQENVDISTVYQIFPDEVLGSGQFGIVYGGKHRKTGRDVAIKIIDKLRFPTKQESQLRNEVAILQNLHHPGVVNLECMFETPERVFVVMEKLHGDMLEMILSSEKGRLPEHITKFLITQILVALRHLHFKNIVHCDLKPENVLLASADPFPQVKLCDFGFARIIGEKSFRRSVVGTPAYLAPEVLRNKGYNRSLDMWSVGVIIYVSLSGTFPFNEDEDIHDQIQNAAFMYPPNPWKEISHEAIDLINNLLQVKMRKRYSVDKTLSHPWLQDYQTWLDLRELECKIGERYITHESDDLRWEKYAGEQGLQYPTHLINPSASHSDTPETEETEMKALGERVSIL", "UniProt Q15835, sequence (whole entry, looked up)": "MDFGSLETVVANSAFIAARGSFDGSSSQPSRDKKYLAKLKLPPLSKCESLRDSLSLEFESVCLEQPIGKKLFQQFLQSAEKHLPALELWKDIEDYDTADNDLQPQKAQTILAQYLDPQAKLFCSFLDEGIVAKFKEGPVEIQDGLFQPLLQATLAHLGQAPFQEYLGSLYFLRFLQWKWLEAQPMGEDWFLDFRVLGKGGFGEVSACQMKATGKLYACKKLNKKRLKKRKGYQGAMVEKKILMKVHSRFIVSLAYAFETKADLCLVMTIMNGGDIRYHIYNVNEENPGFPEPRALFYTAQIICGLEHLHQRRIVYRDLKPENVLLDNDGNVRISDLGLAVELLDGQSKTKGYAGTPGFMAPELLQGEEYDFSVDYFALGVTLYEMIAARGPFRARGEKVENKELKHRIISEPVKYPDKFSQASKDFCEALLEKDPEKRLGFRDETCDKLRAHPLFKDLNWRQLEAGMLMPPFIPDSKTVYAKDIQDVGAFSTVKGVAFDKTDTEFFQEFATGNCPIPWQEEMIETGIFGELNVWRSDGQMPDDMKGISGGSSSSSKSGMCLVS", "UniProt Q00535, sequence (whole entry, looked up)": "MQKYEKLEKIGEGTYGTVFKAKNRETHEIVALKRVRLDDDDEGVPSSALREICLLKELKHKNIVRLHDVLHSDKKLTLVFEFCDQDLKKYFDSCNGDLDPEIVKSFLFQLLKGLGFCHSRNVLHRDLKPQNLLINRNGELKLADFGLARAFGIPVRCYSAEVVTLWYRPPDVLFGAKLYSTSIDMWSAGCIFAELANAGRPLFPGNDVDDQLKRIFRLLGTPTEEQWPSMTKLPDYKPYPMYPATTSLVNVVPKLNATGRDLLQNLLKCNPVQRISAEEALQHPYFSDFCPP"}
{"data": "Series 1", "SMILES": "O=C(Nc1ccccc1)Nc1cccc(Oc2ccc3nccn3n2)c1", "concentration": "1 µM"}
{"target": "CDK5 (Homo sapiens, UniProt Q00535)", "assay": "cell-free binding", "remaining binding": "100%"}
{"target": "DSTYK (Homo sapiens, UniProt Q6XUX3)", "assay": "binding", "remaining binding": "100%"}
{"target": "PRKD1 (Homo sapiens, UniProt Q15139)", "assay": "binding", "remaining binding": "100%"}
{"target": "WNK3 (Homo sapiens, UniProt Q9BYP7)", "assay": "binding", "remaining binding": "100%"}
{"target": "ACVRL1 (Homo sapiens, UniProt P37023)", "assay": "binding, competition with immobilised ligand", "remaining binding": "100%"}
{"target": "ABL1 (Homo sapiens, UniProt P00519, F317I)", "remaining binding": "51% and 100%"}
{"target": "MATK (Homo sapiens, UniProt P42679)", "assay": "binding", "remaining binding": "100%"}
{"target": "MARK2 (Homo sapiens, UniProt Q7KZI7)", "assay": "binding", "remaining binding": "61%"}
{"target": "GRK1 (Homo sapiens, UniProt Q15835)", "assay": "binding", "remaining binding": "100%"}
{"data": "Series 2", "SMILES": "CC[C@@]1(c2cccc(-c3c(F)cncc3OC)c2)C2=C(Nc3n[nH]cc31)[C@H](F)C(C)(C)CC2=O (single isomer, unassigned)", "concentration": "1 µM"}
{"target": "EGFR (Homo sapiens, UniProt P00533, G719S)", "assay": "kinase binding, KINOMEscan", "scale": "relative to: DMSO control", "remaining binding [%]": 88}
{"target": "Myosin-IIIb (MYO3B, Homo sapiens, UniProt Q8WXR4)", "assay": "binding, competition with immobilised ligand", "remaining binding [%]": 100}
{"target": "ABL2 (Homo sapiens, UniProt P42684)", "assay": "binding, competition with immobilised ligand", "remaining binding [%]": 82}
{"target": "NEK1 (Homo sapiens, UniProt Q96PY6)", "assay": "binding, competition with immobilised ligand", "remaining binding [%]": 92}
{"target": "LCK (Homo sapiens, UniProt P06239)", "assay": "kinase binding, KINOMEscan", "scale": "relative to: DMSO control", "remaining binding [%]": 97}
{"target": "SLK (Homo sapiens, UniProt Q9H2G2)", "assay": "binding, competition with immobilised ligand", "remaining binding [%]": 89}
{"data": "Series 3", "SMILES": "C[C@@H]1CN(c2ccc(-c3cc(C(=O)NCCOCCOCCOCCOCCNC(=O)Cn4cc(-c5[nH]cc(C(=O)N[C@@H](CC(N)=O)c6ccc(F)c(Cl)c6)c5-c5ccc(Cl)cc5F)cn4)ccc3F)cc2NC(=O)c2c[nH]c(=O)cc2C(F)(F)F)C[C@H](C)N1C", "effect on": "thermal unfolding", "technique": "differential scanning fluorimetry", "concentration": "5.5 µM", "reading": "higher = more unfolded", "DCAF1": "DDB1- and CUL4-associated factor 1 (DCAF1, Homo sapiens, UniProt Q9Y4B6)", "UniProt Q9Y4B6, sequence (whole entry, looked up)": "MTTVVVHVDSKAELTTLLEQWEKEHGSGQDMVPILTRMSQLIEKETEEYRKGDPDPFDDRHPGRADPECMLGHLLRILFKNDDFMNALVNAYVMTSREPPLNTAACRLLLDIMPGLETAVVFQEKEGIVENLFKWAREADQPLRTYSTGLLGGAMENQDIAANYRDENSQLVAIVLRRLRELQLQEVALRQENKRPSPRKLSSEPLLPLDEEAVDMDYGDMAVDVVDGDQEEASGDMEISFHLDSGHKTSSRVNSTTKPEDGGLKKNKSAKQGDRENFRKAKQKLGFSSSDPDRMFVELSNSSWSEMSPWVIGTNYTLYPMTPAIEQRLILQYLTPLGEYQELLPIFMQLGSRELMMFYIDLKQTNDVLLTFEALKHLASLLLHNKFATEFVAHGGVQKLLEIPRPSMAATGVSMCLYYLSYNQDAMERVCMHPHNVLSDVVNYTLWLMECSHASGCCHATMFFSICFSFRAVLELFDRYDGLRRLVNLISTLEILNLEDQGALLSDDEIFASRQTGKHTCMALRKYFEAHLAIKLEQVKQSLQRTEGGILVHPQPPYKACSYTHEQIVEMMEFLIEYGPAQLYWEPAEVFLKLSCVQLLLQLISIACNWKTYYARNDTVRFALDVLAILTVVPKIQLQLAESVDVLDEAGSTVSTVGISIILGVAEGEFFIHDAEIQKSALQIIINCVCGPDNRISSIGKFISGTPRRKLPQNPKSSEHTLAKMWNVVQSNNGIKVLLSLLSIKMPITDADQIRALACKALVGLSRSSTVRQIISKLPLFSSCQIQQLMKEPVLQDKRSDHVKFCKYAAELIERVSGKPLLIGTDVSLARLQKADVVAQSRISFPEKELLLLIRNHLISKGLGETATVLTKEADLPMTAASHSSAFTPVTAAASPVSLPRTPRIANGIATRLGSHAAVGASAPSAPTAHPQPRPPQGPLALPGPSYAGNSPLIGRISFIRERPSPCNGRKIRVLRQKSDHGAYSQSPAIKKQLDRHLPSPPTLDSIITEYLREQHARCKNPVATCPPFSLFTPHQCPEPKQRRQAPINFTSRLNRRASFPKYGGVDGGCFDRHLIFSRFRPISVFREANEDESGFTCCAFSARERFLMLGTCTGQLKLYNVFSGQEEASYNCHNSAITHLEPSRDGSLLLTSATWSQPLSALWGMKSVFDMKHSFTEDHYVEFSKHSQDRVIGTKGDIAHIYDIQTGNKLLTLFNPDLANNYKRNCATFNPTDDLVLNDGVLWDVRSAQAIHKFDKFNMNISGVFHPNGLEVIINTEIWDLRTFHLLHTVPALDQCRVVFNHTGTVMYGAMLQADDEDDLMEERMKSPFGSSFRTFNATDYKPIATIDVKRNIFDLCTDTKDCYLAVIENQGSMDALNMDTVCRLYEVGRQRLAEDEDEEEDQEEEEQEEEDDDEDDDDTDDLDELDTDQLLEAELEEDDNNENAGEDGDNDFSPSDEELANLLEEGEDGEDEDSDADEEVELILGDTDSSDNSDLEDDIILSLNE"}
{"target": "DCAF1", "conditions": "94.61 °C", "SYPRO Orange fluorescence": "30300 a.u."}
{"target": "DCAF1", "conditions": "72.61 °C", "SYPRO Orange fluorescence": "51800 a.u."}
{"target": "DCAF1", "conditions": "28.6 °C", "SYPRO Orange fluorescence": "7990 a.u."}
{"target": "WDR5 (Homo sapiens, UniProt P61964)", "conditions": "63.61 °C", "SYPRO Orange fluorescence": "8410 a.u."}
{"data": "Other studies, line by line", "SLC6A19": "Sodium-dependent neutral amino acid transporter B(0)AT1 (SLC6A19, Homo sapiens, UniProt Q695T7)", "UniProt Q695T7, sequence (whole entry, looked up)": "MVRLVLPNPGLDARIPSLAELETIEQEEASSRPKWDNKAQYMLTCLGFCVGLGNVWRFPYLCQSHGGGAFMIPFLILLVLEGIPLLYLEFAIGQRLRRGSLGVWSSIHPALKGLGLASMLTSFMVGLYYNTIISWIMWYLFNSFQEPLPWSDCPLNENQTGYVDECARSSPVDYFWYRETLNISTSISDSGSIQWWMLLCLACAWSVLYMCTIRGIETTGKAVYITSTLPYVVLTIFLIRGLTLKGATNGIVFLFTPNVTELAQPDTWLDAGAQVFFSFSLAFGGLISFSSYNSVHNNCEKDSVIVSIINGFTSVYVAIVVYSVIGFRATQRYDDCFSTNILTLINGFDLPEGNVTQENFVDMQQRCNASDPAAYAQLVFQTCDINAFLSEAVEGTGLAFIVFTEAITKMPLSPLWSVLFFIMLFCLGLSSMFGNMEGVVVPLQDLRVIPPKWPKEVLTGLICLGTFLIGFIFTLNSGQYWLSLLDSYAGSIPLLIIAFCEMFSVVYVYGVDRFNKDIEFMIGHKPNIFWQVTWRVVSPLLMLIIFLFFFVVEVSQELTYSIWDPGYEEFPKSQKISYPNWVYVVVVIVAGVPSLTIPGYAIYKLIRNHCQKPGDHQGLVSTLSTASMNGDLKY"}
{"SMILES": "Cc1ccc(O)c(C)c1-c1cnc2[nH]c(-c3cnc(N4CCC(CN5CCN(c6ccc7c(c6)C(=O)N(C6CCC(=O)NC6=O)C7=O)CC5)CC4)nc3)cc2c1C#N (stereo not drawn)", "tested on": "HCC1569", "assay": "CDK1 Thr14 phosphorylation, in-cell western", "conditions": "12.35 nM", "scale": "lower = stronger inhibition", "endpoint": "phospho-CDK1 (Thr14) level", "value": "41.9 a.u. and 43.8 a.u."}
{"SMILES": "Cc1ncsc1-c1ccc(C(CO)NC(=O)C2CC(O)CN2C(=O)C(NC(=O)c2ccc(COc3c(-c4c(C)c(F)cc5[nH]ncc45)c(C4CC4)cc4c(N5CC6CC5CN6)nc(OC5CCOCC5)nc34)cc2)C(C)C)cc1 (stereo not drawn)", "tested on": "AsPC-1", "assay": "in-cell ELISA", "conditions": "3 µM, per-experiment values", "endpoint": "phospho-ERK1/2 level", "value": "3.68% and 10.4% and 11.5%"}
{"SMILES": "Cc1ccc(O)c(C)c1-c1cnc2[nH]c(-c3cnc(N)nc3)cc2c1C#N", "assay": "KINOMEscan", "system": "403 non-mutant kinase panel", "conditions": "1000 nM, percent of control below 10", "endpoint": "number of kinases bound", "value": 5}
{"SMILES": "Cc1ncsc1-c1ccc(C2(NC(=O)C3CC(O)CN3C(=O)C(NC(=O)c3ccc(COc4c(-c5c(C)c(F)cc6[nH]ncc56)c(C5CC5)cc5c(N6CC7CC6CN7)nc(OC6CCOCC6)nc45)cc3)C(C)(C)C)CC2)cc1 (stereo not drawn)", "tested on": "von Hippel-Lindau disease tumor suppressor, with Elongin B/C (VHL, Homo sapiens, UniProt P40337)", "assay": "binding, SPR, single-cycle", "conditions": "binary, geometric mean, with: immobilized VCB complex", "endpoint": "Kd", "value": "1450 nM"}
{"SMILES": "Cc1ccc(O)c(C)c1-c1cnc2[nH]c(-c3cnc(N4CCC5(CC4)CC(CN4CCN(c6ccc(NC7CCC(=O)NC7=O)cc6F)CC4)C5)nc3)cc2c1C#N (stereo not drawn)", "system": "CD-1 mouse, female, plasma", "conditions": "oral, 20 mg/kg", "endpoint": "oral bioavailability", "value": "32.2%"}
{"SMILES": "COCC1CC2C(CCC3(C)C(O)CCC23)c2ccc(O)cc21 (stereo not drawn)", "tested on": "SK-OV-3", "assay": "DNA microarray, item: KIF20A", "conditions": "concentration not given", "scale": "relative to: untreated control", "endpoint": "expression ratio", "value": "0.862 and 0.914 and 0.922 and 0.872 and 0.912"}
{"SMILES": "CC(C)NC(=O)COc1ccc(Cl)cc1", "tested on": "SLC6A19", "assay": "inhibitor, L-[14C]leucine uptake", "system": "CHO-BC cells", "conditions": "10 µM, 6 min, unit not given, with: GPNA 3 mM, JPH203 3 µM", "scale": "relative to: uninhibited cells", "endpoint": "remaining transport activity", "value": 0.626}
{"SMILES": "Cc1ncsc1-c1ccc(C(CO)NC(=O)C2CC(O)CN2C(=O)C(C(C)C)n2cc(-c3ccc(COc4c(-c5c(C)c(F)cc6[nH]ncc56)c(C5CC5)cc5c(N6CC7CC6CN7)nc(OC6CCOCC6)nc45)cc3)nn2)cc1 (stereo not drawn)", "assay": "qRT-PCR, item: ETV4", "system": "mouse, PK-59 xenograft, tumour", "conditions": "10 mg/kg, 2 h, unit not given", "scale": "relative to: vehicle", "endpoint": "mRNA level", "value": "1.23 and 1.31 and 0.691"}
{"SMILES": "CCNC(=O)COc1cc(C)c(Cl)c(C)c1", "tested on": "SLC6A19", "assay": "inhibitor, FLIPR membrane potential", "system": "CHO-BC cells", "conditions": "30 µM, with: L-leucine 1.5 mM", "scale": "relative to: cinromide", "endpoint": "activity", "value": "3 ± 1%"}
{"SMILES": "Cc1ncsc1-c1ccc(C2(NC(=O)C3CC(O)CN3C(=O)C(NC(=O)c3ccc(COc4c(-c5c(C)c(F)cc6[nH]ncc56)c(C5CC5)cc5c(N6CC7CC6CN7)nc(OC6CCOCC6)nc45)cc3)C(C)C)CC2)cc1 (stereo not drawn)", "tested on": "AsPC-1", "assay": "in-cell ELISA", "conditions": "3 µM, per-experiment values", "endpoint": "phospho-ERK1/2 level", "value": "9.88% and 9.1% and 6.39%"}
{"SMILES": "Cc1ccc(O)c(C)c1-c1cnc2[nH]c(-c3cnc(N4CCC5(CC4)CC(N4CCN(c6ccc(NC7CCC(=O)NC7=O)cc6F)CC4)CO5)nc3)cc2c1C#N (stereo not drawn)", "tested on": "PKMYT1 (Homo sapiens, UniProt Q99640)", "system": "HuCCT-1", "conditions": "333.33 nM", "endpoint": "degradation", "value": "37.4%"}
{"SMILES": "CCNC(=O)COc1ccc(Br)c(C)c1", "tested on": "SLC6A19", "assay": "inhibitor, FLIPR membrane potential", "system": "CHO-BC cells", "conditions": "0.03 µM, unit not given", "scale": "relative to: uninhibited cells", "endpoint": "remaining transport activity", "value": 0.744}
{"SMILES": "Cc1nc(C)c(C=[N+]([O-])C(C)(C)C)nc1C", "assay": "Western blot", "system": "MPTP mouse model, substantia nigra cytosol", "conditions": "30 mg/kg, unit not given", "scale": "relative to: β-actin", "endpoint": "TFAM protein level", "value": "91.5 and 107 and 116 and 101"}
{"SMILES": "O=C(O)C1(O)Oc2ccccc2N(Cc2ccccc2)C1=O (stereo not drawn)", "tested on": "Arabidopsis thaliana", "system": "Col-0", "conditions": "12.5 µg/mL, seed germination, repetition mean", "endpoint": "hypocotyl length", "value": "1.75 cm"}
{"note": "Excerpt of the above (other studies, line by line):"}
{"SMILES": "Cc1ccc(O)c(C)c1-c1cnc2[nH]c(-c3cnc(N4CCC5(CC4)CC(CN4CCN(c6ccc(NC7CCC(=O)NC7=O)cc6F)CC4)C5)nc3)cc2c1C#N (stereo not drawn)", "system": "CD-1 mouse, female, plasma", "conditions": "oral, 20 mg/kg", "endpoint": "oral bioavailability", "value": "32.2%"}
{"SMILES": "CCNC(=O)COc1cc(C)c(Cl)c(C)c1", "tested on": "SLC6A19", "assay": "inhibitor, FLIPR membrane potential", "system": "CHO-BC cells", "conditions": "30 µM, with: L-leucine 1.5 mM", "scale": "relative to: cinromide", "endpoint": "activity", "value": "3 ± 1%"}
{"SMILES": "CCNC(=O)COc1ccc(Br)c(C)c1", "tested on": "SLC6A19", "assay": "inhibitor, FLIPR membrane potential", "system": "CHO-BC cells", "conditions": "0.03 µM, unit not given", "scale": "relative to: uninhibited cells", "endpoint": "remaining transport activity", "value": 0.744}
{"SMILES": "CC(C)NC(=O)COc1ccc(Cl)cc1", "tested on": "SLC6A19", "assay": "inhibitor, L-[14C]leucine uptake", "system": "CHO-BC cells", "conditions": "10 µM, 6 min, unit not given, with: GPNA 3 mM, JPH203 3 µM", "scale": "relative to: uninhibited cells", "endpoint": "remaining transport activity", "value": 0.626}
{"SMILES": "Cc1ncsc1-c1ccc(C(CO)NC(=O)C2CC(O)CN2C(=O)C(NC(=O)c2ccc(COc3c(-c4c(C)c(F)cc5[nH]ncc45)c(C4CC4)cc4c(N5CC6CC5CN6)nc(OC5CCOCC5)nc34)cc2)C(C)C)cc1 (stereo not drawn)", "tested on": "AsPC-1", "assay": "in-cell ELISA", "conditions": "3 µM, per-experiment values", "endpoint": "phospho-ERK1/2 level", "value": "3.68% and 10.4% and 11.5%"}
